Experimental data gathered from unrelated publications.
Several values in a cell are separate wells, animals, samples, runs or records. ± marks the error that the study gave.

`Cc1nn(-c2nc3c(F)cc(F)cc3s2)c(O)c1C(c1ccc(C(F)(F)F)cc1)c1c(C)nn(-c2nc3c(F)cc(F)cc3s2)c1O` gave a CC50 of 93.4 µM (THP1-Dual; cell viability, CCK-8; 24 h).
The viability of `CC(=NNC(=O)COc1ccc2c(C)c(Cc3ccccc3)c(=O)oc2c1C)c1ccc(Br)cc1` is reported as 57.8% (HPrEC normal prostate epithelial cells; MTT; 25 µg/mL, 2% serum).
With `C/C=C/C(=O)Nc1ccc(C2=C(c3ccc(O)cc3)C3OC2CC3S(=O)(=O)Oc2ccccc2)cc1` (centres unmarked) the IC50 was 20.9 ± 1.82 µM (MCF-10A; cell viability; 72 (unit not given)).
With `C[C@]12CC[C@@H]3c4ccc(O)cc4C[C@@H](CCCCCCCCC[S+]([O-])CCCC(F)(F)C(F)(F)F)[C@H]3[C@@H]1CC[C@@H]2O` (some centres unmarked) the viability was 50.2% and 54.2% and 58.1% (MCF7; CCK-8; 50 nM; reference: untreated).
`C#Cc1cccc(Nc2ncnc3cc(OCCOC)c(OCCOC)cc23)c1` has a viability of 81.1% (HPrEC normal prostate epithelial cells; MTT; 0.4 µg/mL, 2% serum).
`C=CC(=O)Nc1ccc(C2=C(c3ccc(O)cc3)C3OC2CC3S(=O)(=O)Oc2ccccc2)cc1` (centres unmarked) gave an IC50 of 15.9 ± 2.2 µM (MCF-10A; cell viability; 72 (unit not given)).
For `COCCOC(=O)C1=C(C)NC(C)=C(C(=O)OC/C=C/c2ccccc2)C1c1cccc([N+](=O)[O-])c1` (centres unmarked), the EC50 was 11.8 µM (Toxoplasma gondii; parasite growth, luciferase reporter; HFF, tachyzoite; 72 h).
`CC(=O)O[C@H]1C(=O)[C@@]2(C)[C@H]([C@H](OC(=O)c3ccccc3)[C@]3(O)C[C@H](OC(=O)[C@H](O)[C@@H](NC(=O)c4ccccc4)c4ccccc4)C(C)=C1C3(C)C)[C@]1(OC(C)=O)CO[C@@H]1C[C@@H]2O` gave a viability of 6.25% and 5.78% (CHP-212 parental; SRB; 10 µM).
`Cc1cc(C(=O)NC(C)(C)COc2cccc3c2C(N)=NS(=O)(=O)N3)cc(C)n1` — result for “micronucleated binucleated cells”: 0.3% (human peripheral blood lymphocytes; in vitro micronucleus test; 2000 µg/mL, 4 h, with rat liver S9 activation, DMSO 0.4%).
`COC[C@@H](CC(C)C)NC(=O)c1ccc(C)c(C)c1` — result for “cells with aberrations”: 0% (primary human lymphocytes; measured: structural aberrations; 225 µg/mL, 4 h, without S9).
`COc1ccc(N(CC(F)(F)F)S(=O)(=O)C2CC3OC2C(c2ccc(O)cc2)=C3c2ccc(NC(=O)C=C(C)C)cc2)cc1` (centres unmarked) gave an IC50 of 5.16 ± 0.15 µM (MCF-10A; cell viability; 72 (unit not given)).
`O=[N+]([O-])c1ccc2c(c1)S(=O)(=O)C=C2` gave an EC90 of 9.66 µM (Toxoplasma gondii; parasite growth; HFF, bradyzoite, alkaline-induced).
The viability of `COc1ncnc(C2CC2)c1-c1ncc2cnn(Cc3ccc(-c4nc(C(F)(F)F)cn4C(C)C)cc3)c2n1` is reported as 82% and 82.1% (CHP-212 parental; SRB; 12.5 µM).
With `CC(C)CC(=O)Nc1ccc(C2=C(c3ccc(O)cc3)[C@H]3O[C@@H]2CC3S(=O)(=O)N(CC(F)(F)F)c2ccc(O)cc2)cc1` (mixture of isomers) the IC50 was 21.2 ± 0.89 µM (MCF-10A; cell viability; 72 (unit not given)).

A few entries again:
`Cc1nn(-c2nc3c(F)cc(F)cc3s2)c(O)c1C(c1ccc(C(F)(F)F)cc1)c1c(C)nn(-c2nc3c(F)cc(F)cc3s2)c1O` gave a CC50 of 93.4 µM (THP1-Dual; cell viability, CCK-8; 24 h).
